Published values collected from several papers.
Every numbered part comes from another study and shows a few of its results, in no order.

Series 1
Target: Histone acetyltransferase KAT6A, both winged helices, GST fusion (KAT6A, Homo sapiens, UniProt Q92794, residues 1-181)
Technique: protein binding microarray
Molecule type: double-stranded DNA, one strand shown
Medium: in vitro
Concentration: not given
Notes: 8-mer, flanks averaged, mean of 2 arrays, mostly near background
Reference: not given
Reading: higher = stronger binding
Construct (chain): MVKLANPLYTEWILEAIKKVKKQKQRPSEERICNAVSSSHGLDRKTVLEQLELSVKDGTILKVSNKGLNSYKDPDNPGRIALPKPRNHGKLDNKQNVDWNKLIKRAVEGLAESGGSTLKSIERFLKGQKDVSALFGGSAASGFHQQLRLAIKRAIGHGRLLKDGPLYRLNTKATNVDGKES
Sequence	E-score
TCCATAGA	-0.0225
GTCGGACA	0.147
CTCTCTGC	-0.057
AACACTCT	-0.0308
CAATGGCG	0.192

Series 2
Target: RNA binding protein fox-1 homolog 2, RRM domain, GST-SBP tag (RBFOX2, Homo sapiens, UniProt O43251-10, residues 100-194)
Technique: RNA Bind-n-Seq
Molecule type: RNA
Medium: in vitro
Concentration: 365 nM
Notes: natural RNA segment, single round, ends assumed
Reference: no-protein control
Reading: higher = stronger binding
Sequence	RBNS enrichment (R)
GGGAGUUCUACAGUCCGACGAUCCCUCGUUUUCUCUGCGUGGUUCAGCUACUUUCCAUUUGGUAUUAUGCACUCAAACUUAACAUUUAUCUAUUAAAAUUGCCAUUUCAUUAAGCAAUUUUCACGCACAGUAGUGGAAUUCUCGGGUGCCAA	0.531
GGGAGUUCUACAGUCCGACGAUCCCAAGAUAUAACCCACCAGUGCCUUUUGUCUUCCUGUCAGCUCUGUCAAUCACGCCUGUCCUCUCACGCCCACACCAAGUGCCCAAAGUGGGGAGGGACAAGAGAUUCUGUGGAAUUCUCGGGUGCCAA	0.552
GGGAGUUCUACAGUCCGACGAUCCUAGUAUCCAUGACCAAACUAUCCCUGACACAUGAGGACAGGGGCCUCUUCUGGCUGUCAGGAGCAAAGCCUGAAGACUUGGAGCUGCAGGACUGGAAGAACAGUGGAGCUGGAAUUCUCGGGUGCCAA	0.929
GGGAGUUCUACAGUCCGACGAUCUGAGGGUCCACAGUGAACCUUGAUCAAAUUGCACAGUGGGUUGUUCCUCCACACACCCUCCUUUUUUUACGGUCAAUAUAUUUGUAAAUGGUACAAGAUGAAGGACAACAUGGAAUUCUCGGGUGCCAA	0.548

Series 3
Target: Interferon regulatory factor 5, full length, phosphomimetic (IRF5, Homo sapiens, UniProt Q13568-2, residues 1-514, S451D/S453D/S456D/S462D)
Technique: protein-binding microarray
Molecule type: double-stranded DNA, one strand shown
Medium: in vitro
Concentration: 940 nM top
Notes: 60-bp whole probe
Added: salmon DNA 0.4 mg/ml
Reference: random background probes
Reading: higher = stronger binding
Sequence	fitted relative affinity [z-score]
GCCTAGCACTTAGATTTCAGGTTCGATTAGTGCTAGGTCTTGATTCGCTTGACGCTGCTG	0.717
GCCTAGCACGACGGTATCGGTTTCGGGTCGTGCTAGGTCTTGATTCGCTTGACGCTGCTG	11.9
GCCTAGCACTTAGGTTTCGTTTTCGGTTAGTGCTAGGTCTTGATTCGCTTGACGCTGCTG	10.2
GCCTAGCACGACGAACTGAGTATCGTGACGTGCTAGGTCTTGATTCGCTTGACGCTGCTG	0.181

Further values, each from its own experiment
Substance	target	test	test system	setting	how to read	endpoint	value
PhoQ, residues 284 288 289 292 302 303 MLMVEA	PhoP, residues 12 14 15 18 19 LYFRQ (Escherichia coli, UniProt P23836)	Sort-seq, refers to: YFP reporter	E. coli	PhoQ-PhoP variant library, added: 10 µM Mg2+	reference: high Mg2+ state, higher = stronger signaling	fold induction	5.31

Some of these lines once more (series 2):
Sequence	RBNS enrichment (R)
GGGAGUUCUACAGUCCGACGAUCCUAGUAUCCAUGACCAAACUAUCCCUGACACAUGAGGACAGGGGCCUCUUCUGGCUGUCAGGAGCAAAGCCUGAAGACUUGGAGCUGCAGGACUGGAAGAACAGUGGAGCUGGAAUUCUCGGGUGCCAA	0.929
